Published values pooled from the literature.
Each numbered part is a random draw from the data of one study; scales do not carry over between parts.
Chain of UniProt O15530 (whole entry, looked up): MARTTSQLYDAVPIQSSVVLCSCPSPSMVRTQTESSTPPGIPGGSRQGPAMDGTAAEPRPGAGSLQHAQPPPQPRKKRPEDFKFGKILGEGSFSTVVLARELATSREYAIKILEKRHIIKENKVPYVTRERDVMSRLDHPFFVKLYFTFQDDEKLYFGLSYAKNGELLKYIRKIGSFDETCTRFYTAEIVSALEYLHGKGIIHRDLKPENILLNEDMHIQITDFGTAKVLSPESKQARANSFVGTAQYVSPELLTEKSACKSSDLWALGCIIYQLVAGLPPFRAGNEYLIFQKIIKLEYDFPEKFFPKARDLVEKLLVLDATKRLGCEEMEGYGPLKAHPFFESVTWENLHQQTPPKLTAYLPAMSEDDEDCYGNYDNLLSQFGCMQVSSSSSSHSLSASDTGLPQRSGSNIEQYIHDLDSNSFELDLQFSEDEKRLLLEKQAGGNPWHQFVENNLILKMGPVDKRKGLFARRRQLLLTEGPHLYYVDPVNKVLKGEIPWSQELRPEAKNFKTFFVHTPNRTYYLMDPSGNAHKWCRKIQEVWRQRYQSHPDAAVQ
Chain of UniProt Q9BYT3 (whole entry, looked up): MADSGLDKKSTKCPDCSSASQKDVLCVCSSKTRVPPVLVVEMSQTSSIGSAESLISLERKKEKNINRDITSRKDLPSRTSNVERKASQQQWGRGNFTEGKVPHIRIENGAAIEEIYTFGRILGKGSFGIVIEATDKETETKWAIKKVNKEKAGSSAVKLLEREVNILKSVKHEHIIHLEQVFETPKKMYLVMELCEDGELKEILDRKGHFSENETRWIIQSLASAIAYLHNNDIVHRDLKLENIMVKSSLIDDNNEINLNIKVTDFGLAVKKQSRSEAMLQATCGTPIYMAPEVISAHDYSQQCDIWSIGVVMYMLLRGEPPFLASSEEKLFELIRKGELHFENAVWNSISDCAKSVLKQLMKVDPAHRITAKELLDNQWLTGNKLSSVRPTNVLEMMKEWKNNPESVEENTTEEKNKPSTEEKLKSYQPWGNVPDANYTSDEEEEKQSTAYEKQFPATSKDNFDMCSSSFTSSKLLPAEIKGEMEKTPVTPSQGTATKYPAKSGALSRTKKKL
Chain of UniProt Q86UX6 (whole entry, looked up): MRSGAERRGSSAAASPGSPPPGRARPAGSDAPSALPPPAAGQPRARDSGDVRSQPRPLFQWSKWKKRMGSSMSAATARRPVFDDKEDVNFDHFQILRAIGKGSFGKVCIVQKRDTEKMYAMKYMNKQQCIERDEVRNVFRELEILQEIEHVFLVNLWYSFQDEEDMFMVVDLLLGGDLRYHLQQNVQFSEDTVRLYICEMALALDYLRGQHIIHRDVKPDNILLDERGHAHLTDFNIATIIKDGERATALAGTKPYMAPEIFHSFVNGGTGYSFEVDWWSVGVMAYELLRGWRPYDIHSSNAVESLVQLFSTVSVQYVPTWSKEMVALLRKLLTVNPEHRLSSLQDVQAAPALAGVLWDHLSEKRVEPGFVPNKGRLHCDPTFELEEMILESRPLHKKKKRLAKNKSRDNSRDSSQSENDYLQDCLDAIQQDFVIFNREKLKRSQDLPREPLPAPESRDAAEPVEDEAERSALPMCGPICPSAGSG
Chain of UniProt P42336 (whole entry, unmodified, looked up): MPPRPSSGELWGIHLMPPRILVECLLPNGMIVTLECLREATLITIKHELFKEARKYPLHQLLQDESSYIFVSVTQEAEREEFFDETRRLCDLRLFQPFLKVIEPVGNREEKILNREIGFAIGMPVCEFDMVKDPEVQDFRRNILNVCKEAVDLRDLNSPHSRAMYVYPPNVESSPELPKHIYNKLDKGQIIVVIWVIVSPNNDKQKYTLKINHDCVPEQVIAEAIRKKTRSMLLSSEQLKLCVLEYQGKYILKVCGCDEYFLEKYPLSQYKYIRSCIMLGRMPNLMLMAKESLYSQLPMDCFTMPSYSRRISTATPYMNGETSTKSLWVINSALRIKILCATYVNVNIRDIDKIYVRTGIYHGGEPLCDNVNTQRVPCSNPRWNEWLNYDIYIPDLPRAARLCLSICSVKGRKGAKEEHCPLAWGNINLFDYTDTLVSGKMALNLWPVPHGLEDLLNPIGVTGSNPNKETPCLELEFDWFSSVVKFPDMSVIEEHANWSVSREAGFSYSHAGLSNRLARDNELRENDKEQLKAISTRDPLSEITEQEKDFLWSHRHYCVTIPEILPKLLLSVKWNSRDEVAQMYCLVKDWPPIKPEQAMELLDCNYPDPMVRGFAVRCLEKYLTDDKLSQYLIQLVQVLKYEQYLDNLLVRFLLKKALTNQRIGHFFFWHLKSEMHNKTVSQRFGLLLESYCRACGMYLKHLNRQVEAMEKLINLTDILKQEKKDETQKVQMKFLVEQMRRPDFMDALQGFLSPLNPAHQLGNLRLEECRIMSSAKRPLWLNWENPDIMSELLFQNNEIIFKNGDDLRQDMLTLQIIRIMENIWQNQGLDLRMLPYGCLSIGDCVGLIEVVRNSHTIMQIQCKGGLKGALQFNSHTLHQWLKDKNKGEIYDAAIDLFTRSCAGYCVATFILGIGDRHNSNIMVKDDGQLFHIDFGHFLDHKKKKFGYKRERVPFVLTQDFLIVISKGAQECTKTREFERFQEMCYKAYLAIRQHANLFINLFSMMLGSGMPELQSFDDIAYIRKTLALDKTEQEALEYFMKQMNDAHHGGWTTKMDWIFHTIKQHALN
Chain of UniProt Q13233 (whole entry, looked up): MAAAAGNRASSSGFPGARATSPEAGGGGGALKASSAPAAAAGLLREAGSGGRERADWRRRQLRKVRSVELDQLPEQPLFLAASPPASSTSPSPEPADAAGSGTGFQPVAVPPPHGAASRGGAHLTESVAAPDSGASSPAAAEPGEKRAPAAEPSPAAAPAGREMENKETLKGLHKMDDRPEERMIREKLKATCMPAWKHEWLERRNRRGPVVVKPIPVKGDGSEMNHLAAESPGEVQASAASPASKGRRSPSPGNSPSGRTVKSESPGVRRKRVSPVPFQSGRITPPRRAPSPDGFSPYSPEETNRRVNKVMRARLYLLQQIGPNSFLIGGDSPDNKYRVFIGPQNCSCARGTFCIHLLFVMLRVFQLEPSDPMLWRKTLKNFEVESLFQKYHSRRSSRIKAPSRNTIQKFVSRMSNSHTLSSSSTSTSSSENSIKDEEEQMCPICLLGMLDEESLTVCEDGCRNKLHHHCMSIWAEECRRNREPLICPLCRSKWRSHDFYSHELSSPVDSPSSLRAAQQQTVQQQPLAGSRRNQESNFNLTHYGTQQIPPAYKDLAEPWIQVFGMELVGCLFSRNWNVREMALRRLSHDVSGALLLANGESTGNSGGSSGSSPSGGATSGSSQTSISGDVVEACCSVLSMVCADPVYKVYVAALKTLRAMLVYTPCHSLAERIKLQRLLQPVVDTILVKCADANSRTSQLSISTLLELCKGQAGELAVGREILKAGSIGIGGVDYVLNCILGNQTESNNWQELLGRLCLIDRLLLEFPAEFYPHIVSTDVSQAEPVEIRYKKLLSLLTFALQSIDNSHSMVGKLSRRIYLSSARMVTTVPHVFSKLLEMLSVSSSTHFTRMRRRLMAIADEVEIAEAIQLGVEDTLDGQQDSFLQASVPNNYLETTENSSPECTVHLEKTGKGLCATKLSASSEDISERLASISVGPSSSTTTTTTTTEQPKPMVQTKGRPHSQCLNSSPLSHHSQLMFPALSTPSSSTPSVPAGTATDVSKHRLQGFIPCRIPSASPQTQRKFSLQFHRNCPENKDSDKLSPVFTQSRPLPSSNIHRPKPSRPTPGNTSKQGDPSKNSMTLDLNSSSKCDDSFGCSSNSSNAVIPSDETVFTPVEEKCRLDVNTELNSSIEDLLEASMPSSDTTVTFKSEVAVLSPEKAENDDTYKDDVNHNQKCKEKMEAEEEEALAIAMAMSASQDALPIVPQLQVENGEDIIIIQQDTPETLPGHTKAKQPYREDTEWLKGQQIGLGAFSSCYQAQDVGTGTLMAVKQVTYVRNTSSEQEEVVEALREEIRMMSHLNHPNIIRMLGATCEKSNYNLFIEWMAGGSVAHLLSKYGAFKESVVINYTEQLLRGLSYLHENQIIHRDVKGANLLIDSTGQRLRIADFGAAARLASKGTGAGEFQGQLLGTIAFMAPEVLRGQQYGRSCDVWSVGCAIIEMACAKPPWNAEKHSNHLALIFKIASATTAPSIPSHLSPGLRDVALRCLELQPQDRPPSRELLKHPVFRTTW
Chain of UniProt P11309 (whole entry, looked up): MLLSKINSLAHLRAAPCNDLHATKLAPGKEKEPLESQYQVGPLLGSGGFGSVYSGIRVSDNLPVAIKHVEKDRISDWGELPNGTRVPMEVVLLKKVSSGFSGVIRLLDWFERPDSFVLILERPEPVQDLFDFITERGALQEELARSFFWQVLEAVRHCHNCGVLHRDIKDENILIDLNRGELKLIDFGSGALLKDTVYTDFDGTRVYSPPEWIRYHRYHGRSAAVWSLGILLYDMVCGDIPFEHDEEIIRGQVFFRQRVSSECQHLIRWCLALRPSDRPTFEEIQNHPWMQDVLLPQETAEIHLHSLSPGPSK

Series 1 — technique: aptamer microarray, sandwich; molecule type: DNA with 2'F-ANA; medium: in vitro; tested at: 200 nM; with: Cy3 exosite-II aptamer, 400 nM; direction: higher = stronger binding; quantity: mean fluorescence intensity; strand: GGTTGGTGTGGTTGG
Target: Prothrombin, mature alpha-thrombin (F2, Homo sapiens, UniProt P00734)
Notes: whole 15-mer aptamer, many near background
2'F-ANA at 2 3 4 7 8 12 15: 1110 a.u.
2'F-ANA at 1 5 7 8 11: 71.6 a.u.
2'F-ANA at 1 3 4 8 11 15: 217 a.u.
2'F-ANA at 2 3 5 6 9 10 11 13 15: 55.1 a.u.
2'F-ANA at 1 2 4 5 9 10 11 12 14: 48.4 a.u.
2'F-ANA at 2 4 8 9 11 13 15: 180 a.u.
2'F-ANA at 2 5 7 8 12 13: 139 a.u.
2'F-ANA at 4 5 7 9 10 13 15: 45.7 a.u.

Series 2 — technique: competition with immobilised ligand; tested at: 1 µM; quantity: remaining binding
Compound: CCS(=O)(=O)c1cc2cc(C[C@](O)(CC(C)(C)c3ccc(F)cc3C(N)=O)C(F)(F)F)[nH]c2cn1
Serine/threonine-protein kinase 32C (STK32C, Homo sapiens, UniProt Q86UX6); cell-free assay: 100%
Vascular endothelial growth factor receptor 2 (KDR, Homo sapiens, UniProt P35968); cell-free assay: 83%
Serine/threonine-protein kinase 33 (STK33, Homo sapiens, UniProt Q9BYT3); cell-free assay: 97%
Mitogen-activated protein kinase kinase kinase 1 (MAP3K1, Homo sapiens, UniProt Q13233); cell-free assay: 87%
Phosphatidylinositol 4,5-bisphosphate 3-kinase catalytic subunit alpha isoform (PIK3CA, Homo sapiens, UniProt P42336, E545A); cell-free assay: 100%
3-phosphoinositide-dependent protein kinase 1 (PDPK1, Homo sapiens, UniProt O15530); cell-free assay: 100%
Epidermal growth factor receptor (EGFR, Homo sapiens, UniProt P00533, G719S); cell-free assay: 100%
cAMP-dependent protein kinase catalytic subunit alpha (PRKACA, Homo sapiens, UniProt P17612); cell-free assay: 100%
Tyrosine-protein kinase ABL1, non-phosphorylated (ABL1, Homo sapiens, UniProt P00519, F317I); binding: 95%
Tyrosine-protein kinase ABL1, non-phosphorylated (ABL1, Homo sapiens, UniProt P00519, Q252H); cell-free assay: 100%
Receptor tyrosine-protein kinase erbB-2 (ERBB2, Homo sapiens, UniProt P04626); cell-free assay: 100%
Serine/threonine-protein kinase pim-1 (PIM1, Homo sapiens, UniProt P11309); cell-free assay: 100%

Series 3 — technique: protein binding microarray; molecule type: double-stranded DNA, one strand shown; medium: in vitro; tested at: not given; baseline: not given; direction: higher = stronger binding; quantity: E-score
Target: Histone acetyltransferase KAT6A, winged helix 2, GST fusion (KAT6A, Homo sapiens, UniProt Q92794, residues 85-181)
Notes: 8-mer, flanks averaged, mean of 2 arrays, mostly near background
Residues (chain): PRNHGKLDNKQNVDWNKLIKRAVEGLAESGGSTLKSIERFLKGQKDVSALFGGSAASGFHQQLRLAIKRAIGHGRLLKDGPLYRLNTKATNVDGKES
CACCGACA: 0.0749
CCCAAAGA: 0.102
ACTGATGG: -0.162
AAAATGCT: 0.174
TAATTGTA: 0.0676
CCCACTAG: -0.0889
TACCTACA: -0.073
GAGTAACA: -0.00591

Further values, each from its own experiment
CC(C)C[C@@H]1NC(=O)[C@H](C)NC(=O)[C@H](Cc2cscn2)NC(=O)[C@H](C)NC(=O)[C@@H](CCC(=O)N2CCCC2)NC(=O)[C@H](CC(C)C)NC(=O)[C@@H](CC(C)C)NC1=O
logD (PRP chromatography estimate; 1,9-decadiene/PBS; pH 7.4): -2.85

Nc1cccc(Nc2nc(Cl)nc3[nH]ccc23)c1
remaining compound (mouse, microsomes or S9; 2 µM, 0.5 h): 15.9%

CC(C)C[C@@H]1NC(=O)[C@H](C)NC(=O)[C@@H](CC(C)C)NC(=O)[C@@H](CC(C)C)NC(=O)[C@H](C)NC(=O)[C@H](CC(C)C)NC(=O)[C@@H](CC(C)C)NC1=O
logD (PRP chromatography estimate; 1,9-decadiene/PBS; pH 7.4): 0.408

Excerpt of the above (series 2):
Phosphatidylinositol 4,5-bisphosphate 3-kinase catalytic subunit alpha isoform (PIK3CA, Homo sapiens, UniProt P42336, E545A); cell-free assay: 100%
3-phosphoinositide-dependent protein kinase 1 (PDPK1, Homo sapiens, UniProt O15530); cell-free assay: 100%
Tyrosine-protein kinase ABL1, non-phosphorylated (ABL1, Homo sapiens, UniProt P00519, F317I); binding: 95%
Epidermal growth factor receptor (EGFR, Homo sapiens, UniProt P00533, G719S); cell-free assay: 100%
